Assay results gathered from unrelated publications.
Each line is one published result; not all experiments were run side by side. ± gives the spread as reported.

| Structure (SMILES) | system | setting | AUC(0-inf) |
| --- | --- | --- | --- |
| CCCC[C@H](NC(C)=O)C(=O)N[C@H]1CCC(=O)NC[C@@H](C(=O)N[C@@H](Cc2c[nH]c3ccccc23)C(N)=O)NC(=O)[C@H](CCCNC(=N)N)NC(=O)[C@@H](Cc2ccccc2)NC(=O)[C@H](Cc2c[nH]cn2)NC1=O | healthy human, both sexes, plasma | subcutaneous, 1.0 mg once daily, day 7, geometric mean | 0.0543 µg·h/mL |
| C=CC(=O)Nc1cc(Nc2ncc(C(=O)OC(C)C)c(-c3cn(C)c4ccccc34)n2)c(OC)cc1N(C)CCN(C)C | human, fasted | oral, 20 mg single dose, geometric mean | 0.064 µg·h/mL |
| C=C(C)[C@@H]1CC[C@]2(NCCN3CCS(=O)(=O)CC3)CC[C@]3(C)[C@H](CC[C@@H]4[C@@]5(C)CC=C(C6=CC[C@@](CF)(C(=O)O)CC6)C(C)(C)[C@@H]5CC[C@]43C)[C@@H]12 | healthy human volunteers, plasma | oral, 200 mg, tablet, fasted state, mean | 15.7 µg·h/mL |
| CC(C)NC[C@@H](C(=O)N1CCN(c2ncnc3c2[C@H](C)C[C@H]3O)CC1)c1ccc(Cl)cc1 | human, matched normal hepatic function (Child-Pugh), plasma | oral, 100 mg single, reference geometric mean, vs Moderate | 0.309 µg·h/mL |
| Cc1ccc(NC(=O)c2ccc(CN3CCN(C)CC3)cc2)cc1Nc1nccc(-c2cncc(-c3oncc3C)c2)n1 | older healthy human adults, plasma | oral, 125 mg single dose, fed, mean | 110 µg·h/mL |
| Cn1cnc2c(F)c(Nc3ccc(Br)cc3Cl)c(C(=O)NOCCO)cc21 | human cancer patients, plasma | oral, 75 mg, cycle 1 day 1 | 5.2 µg·h/mL |
| CCCc1nn(C)c2c(=O)[nH]c(-c3cc(S(=O)(=O)N4CCN(C)CC4)ccc3OCC)nc12 | human, male, plasma | oral, 50 mg, day 8, added: sacubitril/valsartan 400 mg daily | 0.629 ± 0.303 µg·h/mL |
| CO[C@H]1C[C@@H]2CC[C@@H](C)[C@@](O)(O2)C(=O)C(=O)N2CCCC[C@H]2C(=O)O[C@H]([C@H](C)C[C@@H]2CC[C@@H](O)[C@H](OC)C2)CC(=O)[C@H](C)/C=C(\C)[C@@H](O)[C@@H](OC)C(=O)[C@H](C)C[C@H](C)/C=C/C=C/C=C/1C | human, whole blood | oral, 30 mg, added: grapefruit juice | 2.42 µg·h/mL |
| O=c1[nH]c(=O)c(Cc2cccc(C(F)(F)F)c2)c([C@H]2CC[C@H](c3ccccc3)CC2)[nH]1 | human, fasted, plasma | oral, 100 mg single dose, geometric mean | 1.19 µg·h/mL |
| O=C(/C=C/c1cccc(S(=O)(=O)Nc2ccccc2)c1)NO | human patients, plasma | intravenous, 1000 mg/m2, cycle 1 day 1 | 77.9 µM·h |
| O=C(/C=C/c1cccc(S(=O)(=O)Nc2ccccc2)c1)NO | human, normal liver function, plasma | intravenous, 400 mg/m^2, 30 min infusion, single dose, mean | 12 µg·h/mL |

Some of these lines once more:
| Structure (SMILES) | system | setting | AUC(0-inf) |
| --- | --- | --- | --- |
| CC(C)NC[C@@H](C(=O)N1CCN(c2ncnc3c2[C@H](C)C[C@H]3O)CC1)c1ccc(Cl)cc1 | human, matched normal hepatic function (Child-Pugh), plasma | oral, 100 mg single, reference geometric mean, vs Moderate | 0.309 µg·h/mL |
